Experimental data pooled from the literature.
Compare with care: the assays were run in different laboratories. Values joined by “and” are separate records of one study, mostly repeats; a detail may differ. ± marks the error that the study gave.

Structure (SMILES) | cell line | assay | system | conditions | how to read | endpoint | value
[Cl-].[Cl-].[Ru+2].c1ccc(-c2ccccn2)nc1.c1ccc(-c2ccccn2)nc1.c1ccc2cc3nc4c5cccnc5c5ncccc5c4nc3cc2c1 | SK-MEL-28 | cell viability |  | 1% O2, added: blue light 453 nm, 100 J/cm2 |  | EC50 | 174 ± 8 µM
N[C@H](C(=O)N1CCCC1)C1CCN(c2nccc3c(-c4ncc(Cl)cc4Cl)cccc23)CC1 | human neutrophils | protein citrullination, inhibitor, flow cytometry, measured: citrullinated proteins |  | 3.16 µM, added: ionomycin |  | inhibition | 70.2% and 70.9% and 68.8% and 71.8%
O=C(C[Se]C(=O)c1ccc2ccccc2n1)Nc1cccc(C(F)(F)F)c1 | NCI60 renal subpanel | cytotoxicity, inhibitor |  | five-dose |  | CC50 | 6.77 µM
CC(C)(C)C(=O)OCOP(=O)(OCOC(=O)C(C)(C)C)C1CCCN(O)C1=O (stereo not shown) | OVCAR-8 |  |  |  |  | log LC50 | > -4 log M
CC[C@H](C)[C@H](NC(=O)[C@H](C)NC(=O)CNC(=O)[C@H](Cc1ccccc1)NC(=O)[C@H](CC(N)=O)NC(=O)[C@H](CC(N)=O)NC(=O)[C@H](CO)NC(=O)[C@H](CO)NC(=O)[C@H](Cc1c[nH]cn1)NC(=O)[C@@H](NC(=O)[C@H](CC(C)C)NC(=O)[C@H](Cc1ccccc1)NC(=O)[C@H](CC(N)=O)NC(=O)[C@H](C)NC(=O)[C@H](CC(C)C)NC(=O)[C@H](CCCNC(=N)N)NC(=O)[C@H](CCC(N)=O)NC(=O)[C@@H](NC(=O)[C@H](C)NC(=O)[C@@H]1CSSC[C@H](NC(=O)[C@@H](N)CCCCN)C(=O)N[C@@H](CC(N)=O)C(=O)N[C@@H]([C@@H](C)O)C(=O)N[C@@H](C)C(=O)N[C@@H]([C@@H](C)O)C(=O)N1)[C@@H](C)O)C(C)C)C(=O)N[C@@H](CC(C)C)C(=O)N[C@@H](CO)C(=O)N[C@@H](CO)C(=O)N[C@H](C(=O)N[C@@H](CC(N)=O)C(=O)N[C@H](C(=O)NCC(=O)N[C@@H](CO)C(=O)N[C@@H](CC(N)=O)C(=O)N[C@H](C(=O)N[C@@H](Cc1ccc(O)cc1)C(N)=O)[C@@H](C)O)C(C)C)[C@@H](C)O | RIN-m5F | colocalization microscopy, measured: lysosomes (LAMP1) |  | 10 µM, 24 h, mostly perinuclear |  | Pearson colocalization coefficient | ~0.5
NC(=S)N/N=C/c1ccc(OCc2ccccc2)cc1 | IMR-32 |  |  | 500 µg/mL, 24 h | higher = more activity | catalase activity (OD450) | 0.083 a.u.
O=C(C[Se]C(=O)c1cccs1)Nc1cccc(C(F)(F)F)c1 | NCI60 renal subpanel | total growth inhibition, inhibitor |  | five-dose |  | mean TGI | 3.31 µM
CC(C)C[C@H](NC(=O)[C@H](CC(=O)O)NC(=O)CNC(=O)[C@@H](N)CCCNC(=N)N)C(=O)N[C@@H](C)C(=O)N[C@H](C(=O)N[C@@H](CC(C)C)C(=O)N[C@@H](CCCNC(=N)N)C(=O)N[C@@H](CCC(N)=O)C(=O)N[C@@H](CC(C)C)C(=O)N[C@@H](C)C(=O)N[C@@H](CCC(N)=O)C(=O)N[C@@H](CCC(=O)O)C(=O)N[C@@H](CC(=O)O)C(=O)NCC(=O)N[C@H](C(=O)N[C@H](C(=O)NCC(=O)N[C@H](C(=O)N[C@@H](CCCNC(=N)N)C(=O)NCCOCCOCCOCCOCCOCCOCCOCCOCCOCCOCCOCCOCCC(=O)N[C@@H](CS)C(N)=O)C(C)C)C(C)C)C(C)C)[C@@H](C)O | H157 lung squamous carcinoma | cell binding, phage binding, measured: output/input phage |  | 10 min, 37 °C | reference: control phage | selectivity ratio | 8.7 ± 4.1
O=C(C[Se]C(=O)c1ccccc1Nc1cccc(C(F)(F)F)c1)Nc1cccc(C(F)(F)F)c1 | NCI60 ovarian subpanel | cytotoxicity, inhibitor |  | five-dose |  | CC50 | 8.87 µM
C=CCN1C(=O)C(CC=C)(C(=O)OCC)Oc2cc(F)ccc21 (stereo not shown) | HEK293T | cytotoxicity, CCK-8 |  | 12.5 µM, 72 h |  | inhibition | 0.43 ± 0.13%
CC(C)[C@H](NC(=O)[C@H](CCCNC(=N)N)NC(=O)[C@@H]1CCCN1C(=O)[C@@H](NC(=O)[C@H](C)NC(=O)[C@H](Cc1ccc(O)cc1)NC(=O)[C@H](CCC(N)=O)NC(=O)[C@H](CCCCN)NC(=O)[C@H](CCCNC(=N)N)NC(=O)[C@@H]1CCCN1C(=O)[C@H](CCC(=O)O)NC(=O)[C@@H](NC(=O)[C@H](C)N)[C@@H](C)O)[C@@H](C)O)C(=O)N[C@@H](Cc1ccccc1)C(=O)N[C@@H](Cc1c[nH]c2ccccc12)C(=O)N[C@H](C(=O)N[C@@H](CC(=O)O)C(=O)N[C@@H](C)C(=O)N1CCC[C@H]1C(=O)NCC(=O)NCCOCCOCCOCCOCCOCCOCCOCCOCCOCCOCCOCCOCCC(=O)N[C@@H](CS)C(N)=O)[C@@H](C)O | H1648 | phage binding |  | 10 min, 37 °C | reference: control phage | selectivity ratio | 1.1 ± 0.26
O=C(C[Se]C(=O)c1ccccc1)Nc1cccc(C(F)(F)F)c1 | NCI60 ovarian subpanel | cell growth, inhibitor |  | five-dose |  | GI50 | 2.39 µM
COc1ccccc1-c1ccncc1C(=O)Nc1nnc(OCc2ccc(Cl)cc2)s1 | HCT116 BRCA2-/- |  |  | 0.5 µM, average of 3 runs | reference: untreated | colony survival | 62.3%
CSCC[C@H](NC(=O)[C@@H](NC(=O)[C@H](CCC(N)=O)NC(=O)[C@H](CO)NC(=O)[C@@H](N)C(C)C)[C@@H](C)O)C(=O)N[C@@H](CCCNC(=N)N)C(=O)N[C@@H](CCC(N)=O)C(=O)N[C@H](C(=O)N[C@@H](C)C(=O)N[C@H](C(=O)N1CCC[C@H]1C(=O)N[C@@H](CC(C)C)C(=O)N[C@@H](CC(C)C)C(=O)N[C@@H](Cc1c[nH]c2ccccc12)C(=O)N[C@@H](Cc1ccccc1)C(=O)N[C@@H](Cc1c[nH]c2ccccc12)C(=O)N[C@H](C(=O)NCC(=O)N[C@@H](CO)C(=O)N[C@@H](CC(C)C)C(=O)NCCOCCOCCOCCOCCOCCOCCOCCOCCOCCOCCOCCOCCC(=O)N[C@@H](CS)C(N)=O)[C@@H](C)O)C(C)C)[C@@H](C)O | HCC78 | phage binding |  |  | reference: targeting over control phage | selectivity ratio | 0.96 ± 0.56
CSCC[C@H](NC(=O)[C@H](CC(C)C)NC(=O)[C@H](CCC(N)=O)NC(=O)[C@H](C)NC(=O)[C@H](Cc1c[nH]c2ccccc12)NC(=O)[C@H](Cc1ccc(O)cc1)NC(=O)[C@H](CCC(=O)O)NC(=O)[C@H](CC(C)C)NC(=O)[C@H](Cc1ccccc1)NC(=O)[C@@H](NC(=O)[C@H](CC(C)C)NC(=O)[C@H](CCCCN)NC(=O)CCCCCNC(=O)[C@H](CCCCN)NC(=O)[C@H](CCC(N)=O)NC(=O)[C@H](CCSC)NC(=O)[C@H](CC(C)C)NC(=O)[C@]1(C)CCCC=CCCC[C@](C)(NC(=O)[C@H](CC(C)C)NC(=O)[C@H](Cc2ccccc2)NC(=O)[C@@H](NC(=O)[C@H](CC(C)C)NC(=O)[C@H](CCCCN)NC(C)=O)[C@@H](C)O)C(=O)N[C@@H](Cc2ccc(O)cc2)C(=O)N[C@@H](Cc2c[nH]c3ccccc23)C(=O)N[C@@H](C)C(=O)N1)[C@@H](C)O)C(=O)N[C@@H](CCC(N)=O)C(=O)N[C@@H](CCCCN)C(N)=O | human tumour cells | cell growth, CCK-8 |  | 16 µM |  | inhibition | inhibited
Cc1cccc(-c2cccc(C)n2)n1.Cc1cccc(-c2cccc(C)n2)n1.F[P-](F)(F)(F)(F)F.F[P-](F)(F)(F)(F)F.[Ru+2].c1ccc2c(-c3nc4c5cccnc5c5ncccc5c4[nH]3)cccc2c1 | SK-MEL-28 | cell viability |  | 1% O2, added: green light 523 nm, 100 J/cm2 |  | EC50 | 47.6 ± 2.2 µM
CC(=O)NCSC[C@H](NC(=O)[C@@H]1CCCN1C(=O)[C@H](C)NC(=O)[C@@H](NC(=O)CNC(=O)[C@@H](NC(=O)[C@H](Cc1c[nH]c2ccccc12)NC(=O)[C@H](C)NC(=O)CNC(=O)[C@H](CO)NC(=O)[C@H](C)NC(=O)[C@@H]1CCCN1C(=O)[C@H](Cc1c[nH]c2ccccc12)NC(=O)[C@H](C)NC(=O)[C@H](C)NC(=O)[C@@H](N)Cc1ccc(O)cc1)[C@@H](C)O)[C@@H](C)O)C(=O)N[C@@H](CO)C(=O)N[C@@H](C)C(=O)NCC(=O)N[C@H](C(=O)NCCOCCOCCOCCOCCOCCOCCOCCOCCOCCOCCOCCOCCC(=O)N[C@@H](CS)C(N)=O)[C@@H](C)O | H1264 lung adenocarcinoma | cell binding, phage binding, measured: output/input phage |  | 10 min, 37 °C | reference: control phage | selectivity ratio | 7.3 ± 2.6
Cc1cc(Oc2nc(N3CC[C@@H](c4ccncc4)C3)ncc2F)[nH]n1 | RD | cell proliferation | muscle cancer |  |  | IC50 | 77.6 µM
C#CCN1C(=O)C(CC#C)(C(=O)OCC)Oc2ccccc21 (stereo not shown) | HEK293T | cytotoxicity, CCK-8 |  | 1.56 µM, 72 h |  | inhibition | 0.06 ± 0.34%
CC(=O)Oc1ccccc1C(=O)[Se]CC(=O)Nc1cccc(C(F)(F)F)c1 | NCI60 renal subpanel | cytotoxicity, inhibitor |  | five-dose |  | CC50 | 17.6 µM
O=c1n(CCNCCOS(=O)(=O)c2ccccc2)c(=O)n(S(=O)(=O)c2ccccc2)c(=O)n1S(=O)(=O)c1ccccc1 | A549 | cell growth or viability, MTT |  | 50 µg/mL, 48 h |  | viability | 33.8%
O=C(O)c1ccc(-c2nc(-c3ccccc3Cl)c3sccn23)cc1 | HEL | flow cytometry, measured: surface CD41 |  | 0.1 mM | higher = more expression | mean fluorescence intensity | 34700 a.u.
O=C(C[Se]C(=O)c1ccco1)Nc1cccc(C(F)(F)F)c1 | NCI60 panel | cell growth |  | five-dose screen |  | mean TGI | 17.4 µM
CCOC(=O)C1(Cc2ccccc2)Oc2cc(F)ccc2N(Cc2ccccc2)C1=O (stereo not shown) | HEK293T | cytotoxicity, CCK-8 |  | 100 µM, 72 h |  | inhibition | 0.71 ± 0.23%
CC(C)CC(O)(CC(C)C)c1cn(C(=O)N2CCCC2)nn1 | mouse T-cells | SILAC proteomics, measured: EFHD2 |  | 1 nM, 6 h, unit not given | reference: DMSO | protein level | 0.99
